Measurements from different studies.
Target: Death-associated protein kinase 1 (DAPK1, Homo sapiens, UniProt P53355)
Sequence of UniProt P53355 (whole entry, looked up): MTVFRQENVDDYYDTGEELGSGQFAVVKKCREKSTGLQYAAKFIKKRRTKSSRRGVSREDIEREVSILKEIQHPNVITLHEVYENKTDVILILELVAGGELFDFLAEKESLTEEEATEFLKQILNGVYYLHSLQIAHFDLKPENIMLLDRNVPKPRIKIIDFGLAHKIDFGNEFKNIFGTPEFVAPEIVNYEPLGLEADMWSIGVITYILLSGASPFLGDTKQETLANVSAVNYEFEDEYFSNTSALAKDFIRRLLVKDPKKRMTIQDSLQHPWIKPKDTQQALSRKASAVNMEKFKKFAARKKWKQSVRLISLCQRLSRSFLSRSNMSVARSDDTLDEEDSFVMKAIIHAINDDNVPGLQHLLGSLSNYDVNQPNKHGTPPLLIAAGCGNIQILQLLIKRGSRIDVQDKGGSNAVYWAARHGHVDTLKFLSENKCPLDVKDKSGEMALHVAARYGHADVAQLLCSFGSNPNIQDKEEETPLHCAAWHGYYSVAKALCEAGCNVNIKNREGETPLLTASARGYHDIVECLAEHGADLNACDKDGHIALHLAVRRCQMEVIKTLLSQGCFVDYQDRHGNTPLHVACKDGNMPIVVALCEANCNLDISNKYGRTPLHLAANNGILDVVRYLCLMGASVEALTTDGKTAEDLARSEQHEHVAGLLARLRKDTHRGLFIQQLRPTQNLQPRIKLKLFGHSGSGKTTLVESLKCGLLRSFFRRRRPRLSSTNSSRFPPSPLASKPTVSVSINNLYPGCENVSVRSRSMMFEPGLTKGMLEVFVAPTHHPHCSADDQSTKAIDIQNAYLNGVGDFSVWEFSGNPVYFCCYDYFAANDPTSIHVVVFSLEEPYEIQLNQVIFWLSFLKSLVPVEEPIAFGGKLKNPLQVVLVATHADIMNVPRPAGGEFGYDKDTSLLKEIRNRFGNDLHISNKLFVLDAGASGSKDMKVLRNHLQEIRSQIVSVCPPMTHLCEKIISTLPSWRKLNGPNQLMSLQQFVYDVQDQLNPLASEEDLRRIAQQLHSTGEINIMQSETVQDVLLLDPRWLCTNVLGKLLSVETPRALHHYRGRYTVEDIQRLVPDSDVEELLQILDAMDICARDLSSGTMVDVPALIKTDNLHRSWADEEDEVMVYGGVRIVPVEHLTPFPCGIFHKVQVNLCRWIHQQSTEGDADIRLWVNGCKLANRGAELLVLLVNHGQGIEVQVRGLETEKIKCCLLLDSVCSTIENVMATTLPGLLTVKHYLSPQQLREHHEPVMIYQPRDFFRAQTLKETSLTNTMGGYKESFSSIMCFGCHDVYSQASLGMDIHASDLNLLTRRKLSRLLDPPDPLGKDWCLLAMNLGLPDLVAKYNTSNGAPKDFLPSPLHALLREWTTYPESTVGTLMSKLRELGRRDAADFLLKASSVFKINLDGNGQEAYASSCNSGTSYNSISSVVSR

SMILES | test | conditions | scale | measurement | value
O=C1[C@H]2CCCN2[C@H](c2cccc3c2OCO3)N1c1ccc(Cl)c(Cl)c1 (racemic) | enzyme activity, inhibitor, ADP-Glo | 100 µM |  | kinase activity | no effect
O=C1NC(=O)/C(=C/c2ccc(-c3ccc(F)cc3O)o2)S1 | enzyme activity | 10 µM |  | remaining activity | 8%
c1cnc2ccc(Nc3nc(NC4CC4)c4nc[nH]c4n3)cc2c1 | kinase activity, inhibitor, SelectScreen kinase profiling | 1 µM | reference: control | remaining activity | 55%
Cc1cc(Nc2cc(N3CCN(C)CC3)nc(Sc3ccc(NC(=O)C4CC4)cc3)n2)[nH]n1 | kinase activity, KinaseProfiler | 0.03 µM, species human | reference: control | remaining activity | 103%
C=CC(=O)N1CCC(COCC(=O)N2CCN(c3nc(-c4cnc(N)nc4C(F)F)nc(N4CCOC[C@@H]4C)n3)CC2)CC1 | KINOMEscan | 1 µM |  | remaining binding | 91%
O=C1[C@H]2CCCN2[C@H](c2ccc3c(c2)OCO3)N1c1ccc(Cl)c(Cl)c1 (mixture of isomers) | enzyme activity, inhibitor, ADP-Glo | 100 µM |  | kinase activity | no effect
COc1cc(F)ccc1-c1ncnc(Nc2cccc(C[S@](C)(=N)=O)c2)n1 | kinase activity | 10 µM, with: 10 µM ATP |  | remaining activity | 96%
O=C(NC1CCC1)c1ccc2nc(-c3cccc(NS(=O)(=O)NCCN4CCCCC4)c3)cn2c1 | enzyme activity | 10 µM |  | remaining activity | 82%
CNc1ncc2c(/C=C/C(=O)N3CCC(OC)CC3)nn(Cc3cccc(C(F)(F)F)c3)c2n1 | kinase activity, inhibitor | 1 µM | reference: untreated control | remaining activity | 115%

Excerpt of the above:
SMILES | test | conditions | scale | measurement | value
CNc1ncc2c(/C=C/C(=O)N3CCC(OC)CC3)nn(Cc3cccc(C(F)(F)F)c3)c2n1 | kinase activity, inhibitor | 1 µM | reference: untreated control | remaining activity | 115%
